Assay results collected from several papers.
Parts stem from different laboratories: compare values within a part only.
UniProt Q8N568, sequence (whole entry, looked up): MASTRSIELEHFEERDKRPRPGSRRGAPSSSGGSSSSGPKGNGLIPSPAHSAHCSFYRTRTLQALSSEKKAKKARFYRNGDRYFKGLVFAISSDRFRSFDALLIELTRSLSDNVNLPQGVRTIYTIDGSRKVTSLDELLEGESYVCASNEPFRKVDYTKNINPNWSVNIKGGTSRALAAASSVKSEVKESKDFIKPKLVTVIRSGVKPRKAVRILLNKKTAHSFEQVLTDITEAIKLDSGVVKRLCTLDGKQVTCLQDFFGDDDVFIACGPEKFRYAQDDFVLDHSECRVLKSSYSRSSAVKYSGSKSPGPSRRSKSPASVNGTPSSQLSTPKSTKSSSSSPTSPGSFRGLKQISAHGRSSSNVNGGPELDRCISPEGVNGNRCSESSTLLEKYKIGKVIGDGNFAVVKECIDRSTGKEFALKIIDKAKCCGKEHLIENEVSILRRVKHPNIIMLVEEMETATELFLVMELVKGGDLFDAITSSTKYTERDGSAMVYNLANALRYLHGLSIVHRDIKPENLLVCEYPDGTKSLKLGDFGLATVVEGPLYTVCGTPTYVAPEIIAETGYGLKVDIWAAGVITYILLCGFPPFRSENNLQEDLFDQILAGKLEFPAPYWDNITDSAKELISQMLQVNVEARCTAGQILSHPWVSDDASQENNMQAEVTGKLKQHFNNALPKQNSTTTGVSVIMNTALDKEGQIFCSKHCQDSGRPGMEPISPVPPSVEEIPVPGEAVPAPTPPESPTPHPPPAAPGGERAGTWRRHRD
UniProt Q9HAZ1, sequence (whole entry, looked up): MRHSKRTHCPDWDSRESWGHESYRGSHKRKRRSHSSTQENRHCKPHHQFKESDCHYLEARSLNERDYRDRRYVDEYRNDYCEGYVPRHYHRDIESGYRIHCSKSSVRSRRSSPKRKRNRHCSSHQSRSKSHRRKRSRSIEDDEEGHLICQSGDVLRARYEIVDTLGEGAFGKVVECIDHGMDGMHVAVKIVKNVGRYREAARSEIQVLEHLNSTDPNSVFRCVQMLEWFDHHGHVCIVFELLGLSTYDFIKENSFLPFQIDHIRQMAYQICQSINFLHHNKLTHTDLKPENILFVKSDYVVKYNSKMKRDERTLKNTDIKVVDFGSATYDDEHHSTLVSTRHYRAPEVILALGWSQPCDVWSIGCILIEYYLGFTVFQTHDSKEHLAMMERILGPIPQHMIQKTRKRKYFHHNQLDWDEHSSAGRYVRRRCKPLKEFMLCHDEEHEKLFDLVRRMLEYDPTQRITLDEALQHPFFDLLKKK
UniProt Q6P2M8, sequence (whole entry, looked up): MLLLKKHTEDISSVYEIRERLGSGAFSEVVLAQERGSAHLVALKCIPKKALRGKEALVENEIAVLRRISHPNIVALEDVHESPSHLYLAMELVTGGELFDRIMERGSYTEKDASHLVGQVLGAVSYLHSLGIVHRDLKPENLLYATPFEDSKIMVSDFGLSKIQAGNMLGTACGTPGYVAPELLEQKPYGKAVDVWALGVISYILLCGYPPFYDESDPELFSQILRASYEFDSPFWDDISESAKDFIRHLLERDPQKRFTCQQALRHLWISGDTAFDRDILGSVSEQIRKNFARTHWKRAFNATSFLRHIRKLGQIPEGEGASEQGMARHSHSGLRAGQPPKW
UniProt Q8WXR4, sequence (whole entry, looked up): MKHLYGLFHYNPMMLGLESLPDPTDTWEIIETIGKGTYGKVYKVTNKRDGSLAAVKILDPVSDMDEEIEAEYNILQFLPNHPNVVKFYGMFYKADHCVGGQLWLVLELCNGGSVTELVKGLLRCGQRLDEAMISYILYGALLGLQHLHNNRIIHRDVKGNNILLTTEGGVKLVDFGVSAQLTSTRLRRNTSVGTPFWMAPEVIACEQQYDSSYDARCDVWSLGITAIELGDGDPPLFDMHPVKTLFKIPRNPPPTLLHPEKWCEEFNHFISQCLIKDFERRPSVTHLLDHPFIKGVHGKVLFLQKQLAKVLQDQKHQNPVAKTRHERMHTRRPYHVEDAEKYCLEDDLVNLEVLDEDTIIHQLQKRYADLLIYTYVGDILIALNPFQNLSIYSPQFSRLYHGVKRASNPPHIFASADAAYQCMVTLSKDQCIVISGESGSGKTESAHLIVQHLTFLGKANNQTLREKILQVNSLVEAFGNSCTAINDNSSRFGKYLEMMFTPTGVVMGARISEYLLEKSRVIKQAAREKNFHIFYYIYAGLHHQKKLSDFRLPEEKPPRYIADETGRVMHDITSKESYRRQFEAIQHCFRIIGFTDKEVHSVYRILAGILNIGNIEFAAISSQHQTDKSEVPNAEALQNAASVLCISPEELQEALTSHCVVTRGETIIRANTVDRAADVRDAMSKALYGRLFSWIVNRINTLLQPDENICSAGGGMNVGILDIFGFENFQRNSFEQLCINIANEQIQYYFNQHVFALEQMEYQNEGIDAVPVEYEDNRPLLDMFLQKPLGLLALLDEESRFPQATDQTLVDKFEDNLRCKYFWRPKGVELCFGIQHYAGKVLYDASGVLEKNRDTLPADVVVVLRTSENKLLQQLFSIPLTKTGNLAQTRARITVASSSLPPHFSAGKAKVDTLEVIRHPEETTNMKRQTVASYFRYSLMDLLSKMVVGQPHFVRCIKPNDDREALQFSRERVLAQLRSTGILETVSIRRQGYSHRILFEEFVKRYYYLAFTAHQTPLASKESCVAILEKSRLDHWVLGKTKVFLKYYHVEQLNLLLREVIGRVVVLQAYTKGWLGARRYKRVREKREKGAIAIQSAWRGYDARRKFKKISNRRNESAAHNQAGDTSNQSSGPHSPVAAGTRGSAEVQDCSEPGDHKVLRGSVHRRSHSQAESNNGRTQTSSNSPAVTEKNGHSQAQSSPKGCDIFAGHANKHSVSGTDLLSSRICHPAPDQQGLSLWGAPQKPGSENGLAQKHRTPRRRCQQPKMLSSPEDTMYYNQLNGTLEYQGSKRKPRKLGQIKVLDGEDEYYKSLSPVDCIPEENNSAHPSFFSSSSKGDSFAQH
UniProt Q02750, sequence (whole entry, looked up): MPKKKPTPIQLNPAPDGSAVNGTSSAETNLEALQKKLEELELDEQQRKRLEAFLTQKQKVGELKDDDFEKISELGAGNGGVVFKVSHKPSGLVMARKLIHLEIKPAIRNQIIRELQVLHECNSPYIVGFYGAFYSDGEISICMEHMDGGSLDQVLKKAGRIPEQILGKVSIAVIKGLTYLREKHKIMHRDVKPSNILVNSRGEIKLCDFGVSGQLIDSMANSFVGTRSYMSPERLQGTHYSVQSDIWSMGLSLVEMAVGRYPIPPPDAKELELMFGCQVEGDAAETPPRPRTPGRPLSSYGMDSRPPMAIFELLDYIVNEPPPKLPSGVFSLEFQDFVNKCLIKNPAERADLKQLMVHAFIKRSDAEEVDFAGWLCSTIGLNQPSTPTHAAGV
UniProt P42681, sequence (whole entry, looked up): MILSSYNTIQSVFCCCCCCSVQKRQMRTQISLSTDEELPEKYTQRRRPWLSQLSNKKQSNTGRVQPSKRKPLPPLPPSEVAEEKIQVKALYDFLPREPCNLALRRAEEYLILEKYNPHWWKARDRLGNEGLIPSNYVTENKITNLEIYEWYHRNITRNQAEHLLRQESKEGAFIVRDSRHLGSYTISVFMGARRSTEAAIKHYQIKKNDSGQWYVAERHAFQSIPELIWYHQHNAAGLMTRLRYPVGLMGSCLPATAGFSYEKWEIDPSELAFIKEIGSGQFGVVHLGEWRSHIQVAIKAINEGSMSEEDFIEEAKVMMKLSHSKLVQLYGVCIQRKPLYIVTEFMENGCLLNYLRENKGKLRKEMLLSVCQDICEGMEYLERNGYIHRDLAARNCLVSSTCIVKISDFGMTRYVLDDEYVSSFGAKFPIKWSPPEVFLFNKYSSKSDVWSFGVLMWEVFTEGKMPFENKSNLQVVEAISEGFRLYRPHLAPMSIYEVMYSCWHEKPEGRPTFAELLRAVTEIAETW
UniProt P28482, sequence (whole entry, looked up): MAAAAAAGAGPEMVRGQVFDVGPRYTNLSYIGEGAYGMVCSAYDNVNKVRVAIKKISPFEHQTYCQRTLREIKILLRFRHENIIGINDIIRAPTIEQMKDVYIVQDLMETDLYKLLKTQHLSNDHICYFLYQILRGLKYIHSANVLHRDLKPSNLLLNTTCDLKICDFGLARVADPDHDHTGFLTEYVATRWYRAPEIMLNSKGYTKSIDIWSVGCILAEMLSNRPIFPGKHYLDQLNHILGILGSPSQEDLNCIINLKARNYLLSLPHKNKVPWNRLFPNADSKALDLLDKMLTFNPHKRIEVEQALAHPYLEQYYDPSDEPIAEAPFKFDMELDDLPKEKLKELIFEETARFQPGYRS

Sample 1
Organism: Sarcocystis neurona
Effect on: parasite growth
Concentration: 10 µM
Time: 96 h
Setting: first screen
Baseline: untreated
For `CN1CCC(=C2c3ccccc3CC(=O)c3sccc32)CC1`, “log2 fold change” read -0.24.
Under “log2 fold change”, `CC1=NS(=O)(=O)c2cc(Cl)ccc2N1` is recorded as 0.0187.
`Nc1cc(N2CCCCC2)nc(N)[n+]1[O-]` — result for “log2 fold change”: 0.31.
`Nc1ncnc2c1ncn2[C@@H]1O[C@H](CO)[C@@H](O)[C@@H]1O` — result for “log2 fold change”: 0.13.
`C=CC[C@@H]1/C=C(\C)C[C@H](C)C[C@H](OC)[C@H]2O[C@@](O)(C(=O)C(=O)N3CCCC[C@H]3C(=O)O[C@H](/C(C)=C/[C@@H]3CC[C@@H](O)[C@H](OC)C3)[C@H](C)[C@@H](O)CC1=O)[C@H](C)C[C@@H]2OC`: “log2 fold change” -0.75.

Sample 2
Structure (SMILES): NC(=O)c1ccc(N(C(N)=O)c2c(F)cccc2F)nc1-c1ccc(F)cc1F
Effect on: enzyme activity
Action: inhibitor
Concentration: 0.5 µM
Baseline: control
MAPK1 (Homo sapiens, UniProt P28482) — remaining activity: 85.7%.
The remaining activity was 112% (CLK3 (Homo sapiens, UniProt P49761)).
It gave 96% for remaining activity (NEK3 (Homo sapiens, UniProt P51956)).
For MET (Homo sapiens, UniProt P08581): remaining activity read 89.4%.
It gave 89% for remaining activity (MAP2K1 (Homo sapiens, UniProt Q02750)).
MAPK14 (Homo sapiens, UniProt Q16539) — remaining activity: 5.23%.
It gave 97.5% for remaining activity (DCLK2 (Homo sapiens, UniProt Q8N568)).
The remaining activity was 104% (TXK (Homo sapiens, UniProt P42681)).
It gave 114% for remaining activity (CLK4 (Homo sapiens, UniProt Q9HAZ1)).
The remaining activity was 106% (Cyclin-dependent kinase 9, with cyclin K (CDK9, Homo sapiens, UniProt P50750)).
The remaining activity was 108% (PNCK (Homo sapiens, UniProt Q6P2M8)).
The remaining activity was 99.2% (Myosin-IIIb (MYO3B, Homo sapiens, UniProt Q8WXR4)).
MARK4 (Homo sapiens, UniProt Q96L34) — remaining activity: 102%.
The remaining activity was 96.5% (CDC42BPB (Homo sapiens, UniProt Q9Y5S2)).

Sample 3
Target: Beta-1 adrenergic receptor (ADRB1, Homo sapiens, UniProt P08588)
UniProt P08588, sequence (whole entry, looked up): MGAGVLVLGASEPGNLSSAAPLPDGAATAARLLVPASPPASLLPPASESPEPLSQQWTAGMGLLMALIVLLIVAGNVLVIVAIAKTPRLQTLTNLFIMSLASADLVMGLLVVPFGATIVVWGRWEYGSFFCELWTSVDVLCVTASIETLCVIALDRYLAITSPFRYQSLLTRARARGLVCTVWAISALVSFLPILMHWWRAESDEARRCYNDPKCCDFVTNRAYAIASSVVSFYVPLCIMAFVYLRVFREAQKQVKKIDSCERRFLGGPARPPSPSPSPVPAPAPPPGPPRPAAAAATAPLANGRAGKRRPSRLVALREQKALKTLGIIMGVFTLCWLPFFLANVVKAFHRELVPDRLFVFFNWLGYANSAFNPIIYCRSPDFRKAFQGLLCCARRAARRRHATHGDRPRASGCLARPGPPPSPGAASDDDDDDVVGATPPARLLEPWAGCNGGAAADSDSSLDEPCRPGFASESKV
Action: agonist
The EC50 of `Cc1noc2c(NC3CCOCC3)cc(-c3ccccn3)nc12` is reported as at least 100 µM.
`Cc1cc(NCCc2cnccn2)nc(-c2ccccc2O)n1` gave an EC50 of at least 100 µM.
The EC50 of `Cn1c(=O)n(-c2ccc(N3CCN(C(=O)OC(C)(C)C)CC3)c(C(F)(F)F)c2)c2c3cc(-c4cncc5ccccc45)ccc3ncc21` is reported as at least 100 µM.
`Nc1nc(N)c2nc(-c3ccccc3)c(N)nc2n1` gave an EC50 of at least 100 µM.

Sample 4
SMILES: NS(=O)(=O)c1cc(NC(=O)Cc2ccccc2)ccc1Oc1cccc(Cl)c1
Effect on: cell-free assay
Method: competition with immobilised ligand
Concentration: 1 µM
It gave 86% for remaining binding (FGFR3 (Homo sapiens, UniProt P22607)).
Tyrosine-protein kinase ABL1, phosphorylated (ABL1, Homo sapiens, UniProt P00519, H396P) — remaining binding: 73%.
LRRK2 (Homo sapiens, UniProt Q5S007) — remaining binding: 72%.
NEK2 (Homo sapiens, UniProt P51955) — remaining binding: 89%.
The remaining binding was 98% (FRK (Homo sapiens, UniProt P42685)).
For Mast/stem cell growth factor receptor Kit, autoinhibited (KIT, Homo sapiens, UniProt P10721): remaining binding read 87%.
The remaining binding was 100% (TLK2 (Homo sapiens, UniProt Q86UE8)).

Some of these lines once more (sample 3):
`Nc1nc(N)c2nc(-c3ccccc3)c(N)nc2n1` gave an EC50 of at least 100 µM.
The EC50 of `Cc1noc2c(NC3CCOCC3)cc(-c3ccccn3)nc12` is reported as at least 100 µM.
The EC50 of `Cn1c(=O)n(-c2ccc(N3CCN(C(=O)OC(C)(C)C)CC3)c(C(F)(F)F)c2)c2c3cc(-c4cncc5ccccc45)ccc3ncc21` is reported as at least 100 µM.
